# Measured values of several laboratories.
# Parts stem from different laboratories: compare values within a part only. Substitutions count along the parent as printed.

# Study 1
# Target: RNA binding protein fox-1 homolog 2, RRM domain, GST-SBP tag (RBFOX2, Homo sapiens, UniProt O43251-10, residues 100-194)
# Method: RNA Bind-n-Seq
# Form: RNA
# Medium: in vitro
# Tested at: 365 nM
# Notes: natural RNA segment, single round, ends assumed
# Relative to: no-protein control
# Direction: higher = stronger binding
# Constant ends, left off below: GGGAGUUCUACAGUCCGACGAUC … UGGAAUUCUCGGGUGCCAA
# Construct (chain): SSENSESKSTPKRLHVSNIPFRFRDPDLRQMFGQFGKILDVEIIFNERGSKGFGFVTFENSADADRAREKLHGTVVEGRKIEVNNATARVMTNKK
Sequence,RBNS enrichment (R)
CACUGCAAGUUUUGAAGGAGUCAGUAGCCAUUAAACCUAAAUUUAAUUUAUUUUAUUAAAAUAACAUAAGGAACCAACUGUAUUGGCUCAAUAAAAACAAAAUUAAAACC,0.729
AUUCUCCUAAAGAGCAGUGAAGGAAAUGUCAGGUUAGCAGGACCCAAGUUUUGGGUGUGAAAUGUUGCCAGCUUCCUAUAAUGUAAACGGACUUGUUAACCUAACCUAAU,0.231
UGUGUUUUGUUUUUUACAAUACACAGUUCAGACAACAUCUUUUUACAGAUUUUAAAGCUUCAUUUAAAAAACAUAUAUCCAAAUGCAGGAAGCAAAGAAAAUACAGGAAA,0.375
AACCCAUGUGUGACAGUCAUGUGCACACAUGGGCGGGGGCUUUUAAAAACCUUUCAGGAAGUCAAUGAUUUCUGUGAUUGAUAUAAUUCUAAGGUGUCUGAGAGCAGGUA,0.693
CCAAAGGGGAAACACAUUUGAAAGCUUUUAAAAUGUAGACUUCAUUAUCCAUACCCAUGGAAACUAAAGAGAAGCCUGCCCCAUUUCUUCGUCCUUUGUUUGCCUUUGUG,0.599
AUCAACAACCCUAAUUAUGGUCACAAUGCUACCAAACUGUAGAUGGUAGCUAAUUUUUCUUUACCUAUUUUCUAAUGUCAUGAUUCCUGUUUGCCCAAUGGAUCAUUUGU,8.52
AGAAAUACAGAUAUAUCUUAAAAAAAAAAAAGCAUUUUGUAUUAAAGAAUUUAAUUCUGAUCUCAAAGCUCCUCUUGGUUUCUCCUUCUCCAUUGAAUCCUUGCUCUAGA,1.64
CACACACAGACUUAUAAUGCAAAUGGAUCUCUGAUCAUAAAGGCCAAAAUUGUGUUCUAUCUCUACCUCGACAUGGGUGGUUCAACACAAAGUCGGUUAUUGGUGUCUAU,0.228
AGCCAUGGUGGCCCUGGCCUUCUUUGUGGUACAGAUCAGCAAGGCCAAGAGCCGGCCGAAGCGGAGGAGGCCCAGGGCAAAGCGUCCACAACUUGCACAGCAGGCCCACC,0.391
UCUGCCUCGCAAGAAGUCUCAGUGGAACUGACAGUUCCAAUAUAAUUACCCUCUCCUUUAUAAGAGCUUUCCUCUUUUAUCUUUUACCUGUAGAGACCUGAAAAUCCCAC,0.54
ACAACUCUGGGCUCUGUUCAGCACUGUCUUCUGUCAGAGGUGCCUUUUCACAAGUAUGGCGGCUUACCACGAGAUAGCUACUGGGUAAGCAAAGCCUGGGACAUUUGCAA,0.28
ACAGAUAAAUCCUUAACAUUUCUCUCCACCUUAGUACUUUAGACUAAUUGUGUUUGUCCGUCCAUGCCAUGAAUGAGUGGGCUGUAGUUGGGCCUAAAUAAAUGAGCUGU,0.814

# Study 2
# Target: ABI1, truncated, D143A, DHFR fusion (Arabidopsis thaliana)
# Method: DHFR PCA, deep sequencing
# Medium: yeast
# Notes: methotrexate growth selection, single substitutions
# With: (+)-ABA 1.4 µM
# Relative to: wild-type fitted maximum
# Direction: higher = stronger binding
# Parent: PYL1, truncated, DHFR fusion (Arabidopsis thaliana); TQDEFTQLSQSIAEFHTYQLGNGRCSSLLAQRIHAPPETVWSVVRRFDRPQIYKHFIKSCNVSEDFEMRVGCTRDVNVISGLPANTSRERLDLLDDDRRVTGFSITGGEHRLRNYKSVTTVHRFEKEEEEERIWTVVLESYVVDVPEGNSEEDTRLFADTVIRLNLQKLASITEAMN; partner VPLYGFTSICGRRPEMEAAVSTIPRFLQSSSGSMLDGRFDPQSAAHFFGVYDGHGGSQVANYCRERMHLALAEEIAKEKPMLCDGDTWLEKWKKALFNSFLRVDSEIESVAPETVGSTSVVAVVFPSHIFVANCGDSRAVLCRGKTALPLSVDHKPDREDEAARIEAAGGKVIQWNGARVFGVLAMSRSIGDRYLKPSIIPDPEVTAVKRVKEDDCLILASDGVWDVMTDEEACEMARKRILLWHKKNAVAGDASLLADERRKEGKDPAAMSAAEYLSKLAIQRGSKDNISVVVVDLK
Substitution,relative binding score [%]
S150P,8.2
D97E,78.9
T73H,51.5
R46K,9.14
E174W,-11.2
I79E,14.3
N22H,70.5
F15M,16.4
Y141Q,-13.5
I79P,-8.04
K116E,1.64
V76Q,-11.9
S171R,60.5
S11N,17.7

# Study 3
# Target: CCNA2, cyclin fold, Cln2 fusion (human)
# Method: yeast growth competition, sequencing
# Medium: yeast
# Notes: strong parent motif
# Relative to: not given
# Direction: higher = stronger binding
# Parent: PKMYT1 docking peptide (human); SFEPRNLLSLFED
Substitution,normalised enrichment score
E3D,0.0863
L10Q,2.79
D13Q,2.67
F11E,-0.812
S1H,3.52
D13N,2.55
F2C,1.56
S9R,2.63
F11M,0.425
F2K,0.193
L7N,-0.533
E12H,2.07
S9D,1.74
S1K,3.41
L7P,-1.58
R5S,0.202
F2A,0.412
P4W,0.433
L7M,-0.894
E12G,2.23
L10T,1.83
L7K,-0.682
L7H,-0.399
L8E,-2.14
L10Y,2.08

# Study 4
# Target: Sal-like protein 4, full length isoform B (SALL4, Homo sapiens, UniProt Q9UJQ4-2, residues 1-616)
# Method: universal PBM
# Form: double-stranded DNA, one strand shown
# Medium: in vitro
# Tested at: not given
# Notes: 8-mer, flanks averaged, mean of replicates
# Direction: higher = stronger binding
# Target sequence (chain): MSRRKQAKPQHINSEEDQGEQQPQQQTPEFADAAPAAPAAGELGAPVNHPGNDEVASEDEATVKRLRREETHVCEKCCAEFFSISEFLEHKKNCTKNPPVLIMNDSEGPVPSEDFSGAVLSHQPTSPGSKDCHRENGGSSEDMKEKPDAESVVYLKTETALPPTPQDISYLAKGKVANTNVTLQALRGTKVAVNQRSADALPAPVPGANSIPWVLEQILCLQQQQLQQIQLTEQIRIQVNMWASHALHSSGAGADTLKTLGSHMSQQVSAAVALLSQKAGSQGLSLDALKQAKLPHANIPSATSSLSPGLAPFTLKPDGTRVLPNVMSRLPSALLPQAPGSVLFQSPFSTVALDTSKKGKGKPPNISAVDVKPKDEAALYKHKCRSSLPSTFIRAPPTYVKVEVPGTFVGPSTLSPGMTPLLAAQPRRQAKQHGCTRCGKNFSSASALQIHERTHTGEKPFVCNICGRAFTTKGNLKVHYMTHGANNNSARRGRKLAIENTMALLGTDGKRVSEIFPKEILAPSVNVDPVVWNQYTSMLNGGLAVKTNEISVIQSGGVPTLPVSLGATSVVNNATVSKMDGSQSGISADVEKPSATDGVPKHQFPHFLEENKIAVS
Sequence,E-score
ACATCCTC,-0.0938
AGTTCTGG,-0.184
CACCATCG,-0.29
CCTTAGAA,-0.00173
ATTAAGGA,0.214
GGATCGGA,-0.234
AGATGGAT,-0.0692
AGTCTACC,-0.116
GGCATGAC,-0.185
ACTGCCTA,0.0365
GAAACTGA,-0.097
CATCCTCG,-0.118
CGGACCTA,-0.13
ACCCCGTC,-0.375
ACCAGGGC,-0.256
CACGATCC,-0.0296
AGAGGGAT,-0.00911
GCTGGGAC,-0.306
CTGCACAC,-0.057
CGTTTTAG,0.0615
CCATGCGC,-0.247
AGTCGGGG,-0.111
CTCCGACA,-0.122
GCTGGCAC,-0.236
CAGTGAAC,-0.0165

# Single results of other studies
Substance,target,assay,test system,setting,how to read,measurement,value
"PhoQ, residues 284 288 289 292 302 303 SMMNNA","PhoP, residues 12 14 15 18 19 NMSFL (Escherichia coli, UniProt P23836)","Sort-seq, item: YFP reporter",E. coli,"PhoQ-PhoP variant library, with: 10 µM Mg2+","relative to: high Mg2+ state, higher = stronger signaling",fold induction,11.3

# Repeated from above (study 3):
Substitution,normalised enrichment score
R5S,0.202
P4W,0.433
F11E,-0.812
L7M,-0.894
L10Q,2.79
F11M,0.425
L10Y,2.08
S9D,1.74
